Measured values gathered from unrelated publications.
Compare with care: the assays were run in different laboratories.
Cell line: HEK293
Read-out: cell growth or viability

SMILES | method | time | CC50
CC(C)[C@H](Nc1c(-c2c(F)cc(OCCCN(C)C)cc2F)c(Cl)nc2ncnn12)C(F)(F)F | ATP luminescence | 48 h | 19.2 nM
NCC1OC(OC2C(N)CC(N)C(OC3OC(CO)C(O)C(N)C3O)C2OCCCCCCCCCCCCn2cc(CNc3nc(NCc4cn(CCCCCCCCCCCCOC5C(OC6OC(CN)C(O)CC6N)C(N)CC(N)C5OC5OC(CO)C(O)C(N)C5O)nn4)nc(NCc4cn(CCCCCCCCCCCCOC5C(OC6OC(CN)C(O)CC6N)C(N)CC(N)C5OC5OC(CO)C(O)C(N)C5O)nn4)n3)nn2)C(N)CC1O (stereo not shown) | resazurin | 48 h | 9500 nM
O=C(/C=C/c1ccc(O)c(O)c1)NCCCCCCCCCC[P+](c1ccccc1)(c1ccccc1)c1ccccc1 | resazurin | 20 h | 10.7 µg/mL
CNCCCOc1cc(F)c(-c2c(Cl)nc3ncnn3c2N[C@@H](C)C(F)(F)F)c(F)c1 | ATP luminescence | 48 h | 11.5 nM
O=C(Cc1ccc(O)c(O)c1)NCCCCCCCCCC[P+](c1ccccc1)(c1ccccc1)c1ccccc1 | resazurin | 20 h | 31.2 µg/mL
O=C(/C=C/c1ccc(Cl)c(Cl)c1)N1CCC(CCN2CCC(c3c[nH]c4cnccc34)CC2)CC1 | MTT | 72 h | 1940 nM
CNCCCOc1cc(F)c(-c2c(Cl)nc3ncnn3c2NCC(F)(F)F)c(F)c1 | ATP luminescence | 48 h | 23.8 nM
COc1ccc2nc3cc(Cl)ccc3c(NCCN3CCN(C)CC3)c2c1 | MTT | 72 h | 678 nM
COc1ccc2c(c1)C1CC(C)(N2)c2c(C)nc3ccc(OC)cc3c21 (stereo not shown) | MTT | 24 h | > 400000 nM
NCC1OC(OC2C(N)CC(N)C(OC3OC(CO)C(O)C(N)C3O)C2OCCCCn2cc(CNc3nc(NCc4cn(CCCCOC5C(OC6OC(CN)C(O)CC6N)C(N)CC(N)C5OC5OC(CO)C(O)C(N)C5O)nn4)nc(NCc4cn(CCCCOC5C(OC6OC(CN)C(O)CC6N)C(N)CC(N)C5OC5OC(CO)C(O)C(N)C5O)nn4)n3)nn2)C(N)CC1O (stereo not shown) | resazurin | 48 h | 190000 nM

A few entries again:
SMILES | method | time | CC50
O=C(Cc1ccc(O)c(O)c1)NCCCCCCCCCC[P+](c1ccccc1)(c1ccccc1)c1ccccc1 | resazurin | 20 h | 31.2 µg/mL
NCC1OC(OC2C(N)CC(N)C(OC3OC(CO)C(O)C(N)C3O)C2OCCCCn2cc(CNc3nc(NCc4cn(CCCCOC5C(OC6OC(CN)C(O)CC6N)C(N)CC(N)C5OC5OC(CO)C(O)C(N)C5O)nn4)nc(NCc4cn(CCCCOC5C(OC6OC(CN)C(O)CC6N)C(N)CC(N)C5OC5OC(CO)C(O)C(N)C5O)nn4)n3)nn2)C(N)CC1O (stereo not shown) | resazurin | 48 h | 190000 nM
